Measurements collected from several papers.
Each line is one published result; not all experiments were run side by side. Several values in a cell are separate wells, animals, samples, runs or records. ± marks the error that the study gave.
UCHL1: Ubiquitin carboxyl-terminal hydrolase isozyme L1 (UCHL1, Homo sapiens, UniProt P09936)
UniProt P09936, sequence (whole entry, looked up): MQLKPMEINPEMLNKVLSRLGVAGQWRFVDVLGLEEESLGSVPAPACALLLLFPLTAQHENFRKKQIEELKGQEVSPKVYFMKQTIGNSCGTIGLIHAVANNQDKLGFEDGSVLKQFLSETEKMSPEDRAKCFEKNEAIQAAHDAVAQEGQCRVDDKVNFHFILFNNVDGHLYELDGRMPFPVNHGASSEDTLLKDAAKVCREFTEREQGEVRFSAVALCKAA
Nicotinic acetylcholine receptor alpha1/beta1/epsilon/delta: Nicotinic acetylcholine receptor alpha1/beta1/epsilon/delta (Mus musculus, UniProt P02716+P04756+P09690+P20782)
UniProt P02716, sequence (whole entry, looked up): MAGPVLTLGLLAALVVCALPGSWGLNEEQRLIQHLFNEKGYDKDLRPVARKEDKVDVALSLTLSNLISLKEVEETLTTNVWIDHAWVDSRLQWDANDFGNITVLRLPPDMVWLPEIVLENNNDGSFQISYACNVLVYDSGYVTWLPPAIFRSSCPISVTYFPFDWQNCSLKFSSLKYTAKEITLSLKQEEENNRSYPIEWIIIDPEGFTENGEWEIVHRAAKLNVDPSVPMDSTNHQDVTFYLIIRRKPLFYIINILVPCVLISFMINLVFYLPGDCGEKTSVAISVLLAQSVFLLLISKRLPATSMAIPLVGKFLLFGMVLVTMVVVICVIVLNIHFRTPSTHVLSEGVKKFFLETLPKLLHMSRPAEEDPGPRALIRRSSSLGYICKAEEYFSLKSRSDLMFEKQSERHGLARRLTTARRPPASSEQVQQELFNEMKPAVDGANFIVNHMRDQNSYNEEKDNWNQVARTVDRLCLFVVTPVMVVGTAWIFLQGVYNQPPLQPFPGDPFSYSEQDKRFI
UniProt P09690, sequence (whole entry, looked up): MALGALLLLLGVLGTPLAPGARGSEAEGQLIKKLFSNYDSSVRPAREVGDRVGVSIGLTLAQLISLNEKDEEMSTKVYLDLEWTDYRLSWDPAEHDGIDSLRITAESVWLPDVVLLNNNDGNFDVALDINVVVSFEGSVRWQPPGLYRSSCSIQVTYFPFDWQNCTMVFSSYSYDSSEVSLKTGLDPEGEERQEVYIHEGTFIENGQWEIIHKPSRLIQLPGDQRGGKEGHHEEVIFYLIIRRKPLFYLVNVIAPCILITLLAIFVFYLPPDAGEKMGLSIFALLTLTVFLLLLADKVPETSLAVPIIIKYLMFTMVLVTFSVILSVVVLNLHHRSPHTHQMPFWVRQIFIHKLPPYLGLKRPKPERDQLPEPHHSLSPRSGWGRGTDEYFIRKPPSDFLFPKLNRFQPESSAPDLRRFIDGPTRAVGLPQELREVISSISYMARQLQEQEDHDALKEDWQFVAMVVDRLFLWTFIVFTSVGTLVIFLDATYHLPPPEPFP
UniProt P20782, sequence (whole entry, looked up): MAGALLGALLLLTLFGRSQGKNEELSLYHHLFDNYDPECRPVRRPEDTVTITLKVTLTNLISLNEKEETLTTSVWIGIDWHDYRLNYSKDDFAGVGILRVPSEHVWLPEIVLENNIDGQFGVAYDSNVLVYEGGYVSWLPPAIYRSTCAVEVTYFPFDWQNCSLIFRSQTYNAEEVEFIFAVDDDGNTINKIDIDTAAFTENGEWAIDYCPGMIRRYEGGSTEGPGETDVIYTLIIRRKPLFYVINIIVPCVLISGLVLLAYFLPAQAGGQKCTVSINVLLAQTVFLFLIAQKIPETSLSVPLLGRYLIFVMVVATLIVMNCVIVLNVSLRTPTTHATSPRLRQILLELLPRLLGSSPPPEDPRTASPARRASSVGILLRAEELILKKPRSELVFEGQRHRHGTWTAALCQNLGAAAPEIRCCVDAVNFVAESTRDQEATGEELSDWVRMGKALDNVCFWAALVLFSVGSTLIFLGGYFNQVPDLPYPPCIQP
UniProt P04756, sequence (whole entry, looked up): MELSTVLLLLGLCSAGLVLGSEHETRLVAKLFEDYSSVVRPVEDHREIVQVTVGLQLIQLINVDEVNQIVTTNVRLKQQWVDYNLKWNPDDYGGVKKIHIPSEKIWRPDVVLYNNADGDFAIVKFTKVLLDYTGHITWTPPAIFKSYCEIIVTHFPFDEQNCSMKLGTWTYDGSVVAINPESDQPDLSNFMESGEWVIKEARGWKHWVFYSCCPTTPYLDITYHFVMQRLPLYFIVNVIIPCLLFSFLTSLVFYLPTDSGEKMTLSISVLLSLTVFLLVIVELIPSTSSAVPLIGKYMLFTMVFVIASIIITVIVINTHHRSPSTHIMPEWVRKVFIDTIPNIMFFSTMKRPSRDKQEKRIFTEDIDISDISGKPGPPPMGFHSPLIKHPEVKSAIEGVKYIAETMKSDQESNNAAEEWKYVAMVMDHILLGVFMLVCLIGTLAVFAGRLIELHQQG
CAMK4: Calcium/calmodulin-dependent protein kinase type IV (CAMK4, Homo sapiens, UniProt Q16566)
UniProt P27361, sequence (whole entry, looked up): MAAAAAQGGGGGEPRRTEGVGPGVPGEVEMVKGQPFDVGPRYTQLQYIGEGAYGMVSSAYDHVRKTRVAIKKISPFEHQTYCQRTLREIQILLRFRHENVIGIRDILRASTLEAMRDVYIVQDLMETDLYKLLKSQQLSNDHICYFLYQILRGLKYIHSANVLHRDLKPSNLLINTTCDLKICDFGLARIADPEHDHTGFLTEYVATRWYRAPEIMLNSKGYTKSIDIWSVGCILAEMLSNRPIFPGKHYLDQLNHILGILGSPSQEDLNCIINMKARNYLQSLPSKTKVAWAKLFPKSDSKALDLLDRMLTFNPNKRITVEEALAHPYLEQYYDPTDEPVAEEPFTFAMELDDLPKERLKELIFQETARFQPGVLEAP
UniProt Q16566, sequence (whole entry, looked up): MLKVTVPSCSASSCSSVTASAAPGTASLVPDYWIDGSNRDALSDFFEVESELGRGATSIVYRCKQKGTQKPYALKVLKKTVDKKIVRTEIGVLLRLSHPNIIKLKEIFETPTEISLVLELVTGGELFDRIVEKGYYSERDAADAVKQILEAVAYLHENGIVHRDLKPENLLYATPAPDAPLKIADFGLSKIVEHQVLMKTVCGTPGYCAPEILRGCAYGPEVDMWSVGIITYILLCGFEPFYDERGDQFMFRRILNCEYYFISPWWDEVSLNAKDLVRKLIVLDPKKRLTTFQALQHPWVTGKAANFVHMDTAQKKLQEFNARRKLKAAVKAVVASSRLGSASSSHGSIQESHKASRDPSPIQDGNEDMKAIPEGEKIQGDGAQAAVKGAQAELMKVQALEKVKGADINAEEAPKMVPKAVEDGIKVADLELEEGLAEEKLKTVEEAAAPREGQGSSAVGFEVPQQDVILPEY
UniProt P41595, sequence (whole entry, looked up): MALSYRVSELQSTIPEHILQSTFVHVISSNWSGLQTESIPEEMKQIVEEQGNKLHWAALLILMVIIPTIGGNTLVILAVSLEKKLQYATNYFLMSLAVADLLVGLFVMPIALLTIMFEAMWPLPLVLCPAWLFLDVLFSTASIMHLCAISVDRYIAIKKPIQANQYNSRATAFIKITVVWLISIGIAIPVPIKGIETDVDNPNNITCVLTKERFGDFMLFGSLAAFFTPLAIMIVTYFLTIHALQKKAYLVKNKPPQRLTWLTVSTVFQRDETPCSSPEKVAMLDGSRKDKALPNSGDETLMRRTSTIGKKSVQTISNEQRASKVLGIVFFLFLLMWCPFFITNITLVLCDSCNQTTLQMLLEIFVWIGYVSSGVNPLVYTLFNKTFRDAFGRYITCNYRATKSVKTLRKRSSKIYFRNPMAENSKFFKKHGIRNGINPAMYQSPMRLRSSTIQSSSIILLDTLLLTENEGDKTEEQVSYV
UniProt Q8WU58, sequence (whole entry, looked up): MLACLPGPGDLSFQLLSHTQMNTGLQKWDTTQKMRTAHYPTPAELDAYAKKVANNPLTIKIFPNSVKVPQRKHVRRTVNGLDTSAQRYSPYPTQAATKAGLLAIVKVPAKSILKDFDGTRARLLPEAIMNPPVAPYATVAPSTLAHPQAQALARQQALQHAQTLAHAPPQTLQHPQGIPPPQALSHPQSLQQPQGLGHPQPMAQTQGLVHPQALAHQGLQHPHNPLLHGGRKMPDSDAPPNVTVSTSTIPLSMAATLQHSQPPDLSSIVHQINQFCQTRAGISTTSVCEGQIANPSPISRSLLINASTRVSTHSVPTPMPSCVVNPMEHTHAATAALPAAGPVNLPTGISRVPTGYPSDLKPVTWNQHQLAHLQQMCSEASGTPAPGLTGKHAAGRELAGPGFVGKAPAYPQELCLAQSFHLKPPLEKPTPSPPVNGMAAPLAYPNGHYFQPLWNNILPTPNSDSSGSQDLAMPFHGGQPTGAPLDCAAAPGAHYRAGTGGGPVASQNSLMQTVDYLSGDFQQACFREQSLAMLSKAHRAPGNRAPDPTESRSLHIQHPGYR
UniProt Q06520, sequence (whole entry, looked up): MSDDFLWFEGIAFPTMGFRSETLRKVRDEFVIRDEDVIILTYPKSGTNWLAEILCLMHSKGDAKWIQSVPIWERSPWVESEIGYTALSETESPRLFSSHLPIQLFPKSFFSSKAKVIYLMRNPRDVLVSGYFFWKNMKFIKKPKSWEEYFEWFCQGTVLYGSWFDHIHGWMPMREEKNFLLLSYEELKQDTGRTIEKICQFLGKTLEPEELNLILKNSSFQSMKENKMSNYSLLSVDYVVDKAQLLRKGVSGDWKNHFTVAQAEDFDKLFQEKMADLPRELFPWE
UniProt P97612, sequence (whole entry, looked up): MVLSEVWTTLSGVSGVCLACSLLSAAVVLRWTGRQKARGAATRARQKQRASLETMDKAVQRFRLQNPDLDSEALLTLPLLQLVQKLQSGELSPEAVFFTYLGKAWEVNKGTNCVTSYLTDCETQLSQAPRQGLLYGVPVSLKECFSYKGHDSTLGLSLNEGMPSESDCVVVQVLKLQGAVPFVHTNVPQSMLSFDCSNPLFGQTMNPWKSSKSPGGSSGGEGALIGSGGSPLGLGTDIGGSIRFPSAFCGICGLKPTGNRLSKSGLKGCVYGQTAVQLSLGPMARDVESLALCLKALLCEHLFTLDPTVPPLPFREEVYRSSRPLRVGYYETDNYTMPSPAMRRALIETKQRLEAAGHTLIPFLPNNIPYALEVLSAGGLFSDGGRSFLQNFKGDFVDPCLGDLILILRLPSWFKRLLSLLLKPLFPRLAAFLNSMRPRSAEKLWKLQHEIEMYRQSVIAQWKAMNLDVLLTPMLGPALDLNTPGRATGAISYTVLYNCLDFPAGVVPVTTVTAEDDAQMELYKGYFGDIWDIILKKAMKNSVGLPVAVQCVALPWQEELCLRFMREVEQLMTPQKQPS

For `O=C(C1CCOCC1)N1CC(=O)N2CCc3ccccc3[C@@H]2C1`, “fold change in EC50” read about 16 fold (TRPM channel TRPM_PZQ (Schistosoma mansoni, UniProt A0A5K4F0X5); agonist; HEK293 cells transfected; relative to: (R)-praziquantel).
`O=C(O)COP(=O)(O)O` gave a Ki ratio of 440 (TPI1 (Saccharomyces cerevisiae, UniProt P00942, Y208F); enzyme activity, competitive inhibitor, GPDH/NADH-coupled; pH 7.5, 25 °C, ionic strength 0.1 NaCl, together with: glyceraldehyde 3-phosphate substrate; relative to: mutant over wild type).
With `Nc1ncnc2c1ncn2[C@@H]1O[C@H](COP(=O)(O)OP(=O)(O)O)[C@@H](O)[C@H]1O` the association constant was 1870 ± 221 M⁻¹ (Cell cycle histidine kinase CckA, cytoplasmic region (Caulobacter vibrioides, UniProt Q9X688); binding, ITC; together with: without c-di-GMP).
Under probe labelling, `CCCCCC[C@H]1C(=O)O[C@H](C)[C@H](NC(=O)c2cccc(NC=O)c2O)C(=O)O[C@@H](C)[C@@H]1OC(=O)CC(C)C` is recorded as “decreased” (MGLL (Homo sapiens, UniProt Q99685); gel-based ABPP; U-87 MG; concentration not given, 2 h, together with: 10 nM LEI-463-Cy5).
`CN1CCN(c2cc(-c3ccncc3)c(-c3ccc4ccccc4c3)nn2)CC1` has an activation of -1.8% (ADRA1B (Homo sapiens, UniProt P35368); agonist, FLIPR; 12.5 µM).
For `COc1cc(N)c(Cl)cc1C(=O)NC1CN2CCC1CC2` (centres unmarked), “log2 fold change” read 0.526 (GPER1 (Homo sapiens, UniProt Q99527); β-arrestin recruitment, TANGO luminescence, measured: GPER; concentration not given; relative to: basal luminescence).
`O=C(CCl)C1CCCC2(CC2)C1` (centres unmarked) gave a labelling of 5.3% (UCHL1; covalent, intact protein LC-MS; 12.5 µM).
`COc1ncccc1-c1cnn2ccc(N3CCN(C(=O)OC(C)C)CC3)nc12` gave a remaining binding of 100% (Cyclin-dependent kinase 4, with cyclin D3 (CDK4, Homo sapiens, UniProt P11802); KINOMEscan binding; 1 µM; relative to: untreated control).
`COc1ccc(N2C(=O)N(c3c(C)cccc3Cl)Cc3cnc(Nc4ccc(C5CCN(C)CC5)cc4OC)nc32)nc1` gave an inhibition of 4.28% (TSSK2 (Homo sapiens, UniProt Q96PF2); kinase activity; 0.5 µM).
Under “inhibition of binding”, `O=C(Nc1cnccc1Cl)N1CCN(Cc2ccc3c(c2)OC(F)(F)O3)CC1` is recorded as -7% (CYSLTR2 (Homo sapiens, UniProt Q9NS75); radioligand binding; 50 µM, together with: [3H]LTD4).
For `N/C(=N\N=C\c1ccc(-c2cccc([N+](=O)[O-])c2)o1)N[N+](=O)[O-]`, the remaining activity was 82.1 ± 2.04% (TRPM8 (Homo sapiens, UniProt Q7Z2W7); antagonist; HEK293; 5 µM; relative to: control).
The ACh response of `CC[N+]1(CC)CCN(c2ccc(C#N)cc2)CC1` is reported as 0.483 ± 0.217 (Nicotinic acetylcholine receptor alpha1/beta1/epsilon/delta; ion current, inhibitor, two-electrode voltage clamp; Xenopus oocytes; 30 µM, after co-application, unit not given, together with: ACh 30 µM; relative to: ACh alone).
For `CN(CC(=O)O)C(=N)NP(=O)(O)O`, the Km was 170 ± 10 µM (CKMT1A (Homo sapiens, UniProt P12532); substrate, Kinase-Glo luminescence; pH 7.0, reverse reaction, WT mutant, together with: second substrate in excess).
`CN(C(=O)n1cnc(-c2ccc[n+]([O-])c2)c1)C1CCCCC1` has an inhibition of 2% (CALCRL (Homo sapiens, UniProt Q16602); radioligand binding; 10 µM).
`CCOC(=O)CC(SP(=O)(OC)OC)C(=O)OCC` (centres unmarked) has a remaining activity of 23.5% (uncharacterized protein (Anopheles coluzzii, UniProt A0A6E8VQK1); enzyme activity, inhibitor; Sf9 cell homogenate; 0.4587 µM, 0.1667 h, together with: α-naphthyl acetate substrate; relative to: no inhibitor).
`COC(=O)[C@@]1(O)C[C@H]2O[C@]1(C)n1c3ccccc3c3c4c(c5c6ccccc6n2c5c31)C(=O)NC4` gave a kinase activity of 117% and 99% and 96.1% (MAPK3 (Homo sapiens, UniProt P27361); ADP-Glo; 17.2 µM, together with: MBP substrate).
With `C[C@@H](NC(=O)[C@@H](N)Cc1ccc(O)cc1)C(=O)NCC(=O)N(C)[C@@H](Cc1ccccc1)C(=O)NCCO` the GTPγS binding was 0.97% and 6.66% and 1.07% and 3.57% (Oprm1 (Mus musculus, UniProt P42866); agonist; mouse spinal cord membranes; 1.78 µM; relative to: basal binding).
With `O=C(O)C(F)(F)C(F)(F)C(F)(F)F` the enthalpy change was -8.1 kcal/mol (Albumin (ALB, Homo sapiens, UniProt P02768); isothermal titration calorimetry; concentration not given, 25 °C, first binding site, HSA 20 µM).
`N[C@@H](Cc1c[nH]c2ccccc12)C(=O)O` gave a ΔG of -9.6 ± 0.04 kcal/mol (Transcription attenuation protein MtrB, Δ71 truncation (mtrB, Geobacillus stearothermophilus, UniProt Q9X6J6); isothermal titration calorimetry; 25 °C, one-site model).
`O=C(CO)COP(=O)(O)O` has a Km of 1100 µM (Triosephosphate isomerase (Leishmania mexicana, UniProt P48499, E66Q)).
`CC[C@H](CO)Nc1nc(NCc2ccc(-c3ccccn3)cc2)c2ncn(C(C)C)c2n1` has a binding score of 0.5 (DYRK1A (Homo sapiens, UniProt Q13627); KINOMEscan competition binding; 10 µM, primary screen; direction not given).
`CNC(C)Cc1ccc2n[se]nc2c1` (centres unmarked) gave an Emax of 50.6 ± 6.5% (HTR2B (Homo sapiens, UniProt P41595); agonist; relative to: 5-HT).
`Oc1ccc(/C=C/c2cc(O)cc(O)c2)cc1` has a ∆H of -6.61 ± 0.265 kcal/mol (O-methyltransferase (Sorghum bicolor, UniProt A0A1B6PFV1, W279A); isothermal titration calorimetry; together with: SFG).
`O=C(c1ccc(Cl)cc1)N1CCN2C(=O)N(OC(=O)N3CCOc4ccccc43)C(=O)C2C1` (centres unmarked): “probe labelling ratio” 2.55 (NOTUM (Homo sapiens, UniProt Q6P988); MS-based ABPP; SW-620 conditioned medium; 10 µM, median protein ratio; relative to: compound over DMSO).
Under “response relative to ACh”, `CC[N+]1(C)CCN(c2cccc(Cl)c2)CC1.[I-]` is recorded as 33% (Nicotinic acetylcholine receptor alpha1/beta1/epsilon/delta; peak current, agonist, two-electrode voltage clamp; Xenopus oocytes; 30 µM; relative to: ACh 30 µM).
The IC50 of `O=C1C=CC(=O)c2c(O)cccc21` is reported as about 7 µM (PIN1 (Homo sapiens, UniProt Q13526); PPIase activity, inhibitor, chymotrypsin-coupled).
For `CN(C(=O)n1cnc(-c2ccc[n+]([O-])c2)c1)C1CCCCC1`, the fold change was -45 (Faah (Rattus norvegicus, UniProt P97612); enzyme activity, ABPP; rat, brain; oral, 10 mg/kg/day, 7 days; relative to: vehicle).
Under activity, `NCCOC(=O)[C@@H]1CS[C@H]2CS[C@H](CS)N21` is recorded as “inactive” (sfhI (Serratia fonticola, UniProt Q9RMI1); activity class; concentration not given).
The Vmax of `Oc1c(Cl)cc(-c2ccccc2)cc1Cl` is reported as 44.3 ± 3.9 nmol/min/mg (SULT2A1 (Homo sapiens, UniProt Q06520); substrate; pH 7.0, 37 °C, together with: PAPS 200 µM).
`[2H]c1c([2H])c([C@]2([2H])CCCN2C(=O)C(C)(C)Oc2ccc3cn[nH]c3c2)c([2H])c([2H])c1C([2H])([2H])[2H]` gave a remaining binding of 63% (NEK2 (Homo sapiens, UniProt P51955); KINOMEscan; 1 µM; relative to: DMSO control).
`Clc1ccc(COc2ccccc2CNCc2cccnc2)cc1` — result for “highest concentration without inhibition”: over 200 µM (Aminoglycoside N(3)-acetyltransferase IV (aacC4, Salmonella sp, UniProt P08988); neomycin acetylation, inhibitor; together with: neomycin).
With `C[C@H]1CN(c2n[nH]c3nc(N[C@H]4CC[C@H](NS(=O)(=O)CCC(F)(F)F)CC4)ncc23)CCO1` the remaining binding was 97% (Protein FAM222B (Homo sapiens, UniProt Q8WU58); competitor, Kinobeads competition; HEK293, K562, placenta extract; 0.032 µM; relative to: vehicle).
`CC[C@@H](C)[C@@H](NC(=O)[C@@H](Cc1ccc(O)cc1)NC(=O)[C@H]1CCCN1C(=O)[C@@H](CCCNC(=N)N)NC(=O)[C@H](N)Cc1c[nH]cn1)C(=O)N[C@H](C)C(=O)N[C@H](Cc1c[nH]cn1)C(=O)N[C@H](CCCNC(=N)N)C(=O)N[C@H](CCCCNC(=O)c1cccc(S(=O)(=O)F)c1)C(=O)N[C@H](Cc1ccc(O)cc1)C(=O)N[C@H](CO)C(=O)N[C@H](Cc1ccccc1)C(N)=O` — result for “surface TFRC expression”: 0.882 (Transferrin receptor protein 1 (Tfrc, Mus musculus, UniProt Q62351); flow cytometry; DC2.4; 2 h, pH 6, replicate 2, unit not given; relative to: 0 h).
`COc1ccc(C(=O)CCl)c2c1C(=O)CO2` gave a labelling of 16.1% (UCHL1; covalent, intact protein LC-MS; 12.5 µM).
With `Nc1ncc(-c2nc(N3CCOCC3)nc(N3CCOCC3)n2)c(C(F)F)n1` the remaining binding was 79% (DSTYK (Homo sapiens, UniProt Q6XUX3); KINOMEscan; 10 µM).
`C[n+]1cn([C@@H]2O[C@H](COP(=O)([O-])OP(=O)(O)OP(=O)(O)OC[C@H]3O[C@@H](n4cnc5c(=O)[nH]c(N)nc54)[C@H](O)[C@@H]3O)[C@@H](O)[C@H]2O)c2nc(N)[nH]c(=O)c21`: “stoichiometry first site” 1.07 (m7GpppX diphosphatase (DCS1, Saccharomyces cerevisiae, UniProt Q06151, H268N/K126A); binding, ITC).
With `O=C(Nc1cccnn1)N1CCC(=Cc2cccc(Oc3ccc(C(F)(F)F)cn3)c2)CC1` the inhibition was 52% (CAMK4; enzyme activity, inhibitor; 50 µM, together with: autocamtide-2).
`COc1cc(Nc2ncc(F)c(Nc3ccc4c(n3)NC(=O)C(C)(C)O4)n2)cc(OC)c1OC` gave an inhibition of 0% (CAMK4; KINOMEscan; 10 µM).

For quick reference, copied from above:
With `Nc1ncc(-c2nc(N3CCOCC3)nc(N3CCOCC3)n2)c(C(F)F)n1` the remaining binding was 79% (DSTYK (Homo sapiens, UniProt Q6XUX3); KINOMEscan; 10 µM).
`O=C(c1ccc(Cl)cc1)N1CCN2C(=O)N(OC(=O)N3CCOc4ccccc43)C(=O)C2C1` (centres unmarked): “probe labelling ratio” 2.55 (NOTUM (Homo sapiens, UniProt Q6P988); MS-based ABPP; SW-620 conditioned medium; 10 µM, median protein ratio; relative to: compound over DMSO).
`O=C(CCl)C1CCCC2(CC2)C1` (centres unmarked) gave a labelling of 5.3% (UCHL1; covalent, intact protein LC-MS; 12.5 µM).
